Measurements gathered from unrelated publications.
Protocols differ between the studies behind these lines.
Htr2c: 5-hydroxytryptamine receptor 2C (Htr2c, Mus musculus, UniProt P34968)
Chain of UniProt P34968 (whole entry, looked up): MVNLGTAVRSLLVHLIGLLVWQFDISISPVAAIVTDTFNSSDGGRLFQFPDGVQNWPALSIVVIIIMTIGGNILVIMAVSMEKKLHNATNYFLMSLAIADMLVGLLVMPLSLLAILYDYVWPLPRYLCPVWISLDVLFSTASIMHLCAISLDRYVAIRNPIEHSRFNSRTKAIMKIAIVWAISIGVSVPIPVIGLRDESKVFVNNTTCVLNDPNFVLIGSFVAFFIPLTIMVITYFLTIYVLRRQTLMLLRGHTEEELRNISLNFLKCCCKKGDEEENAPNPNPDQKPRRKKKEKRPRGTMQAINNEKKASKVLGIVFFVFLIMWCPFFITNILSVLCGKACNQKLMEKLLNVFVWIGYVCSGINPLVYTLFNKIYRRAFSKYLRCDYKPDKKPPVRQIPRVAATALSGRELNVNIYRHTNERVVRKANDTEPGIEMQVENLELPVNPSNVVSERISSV
tmk: Thymidylate kinase (tmk, Mycobacterium tuberculosis, UniProt P9WKE1)
CNR1: Cannabinoid receptor 1 (CNR1, Homo sapiens, UniProt P21554)
Chain of UniProt P21554 (whole entry, looked up): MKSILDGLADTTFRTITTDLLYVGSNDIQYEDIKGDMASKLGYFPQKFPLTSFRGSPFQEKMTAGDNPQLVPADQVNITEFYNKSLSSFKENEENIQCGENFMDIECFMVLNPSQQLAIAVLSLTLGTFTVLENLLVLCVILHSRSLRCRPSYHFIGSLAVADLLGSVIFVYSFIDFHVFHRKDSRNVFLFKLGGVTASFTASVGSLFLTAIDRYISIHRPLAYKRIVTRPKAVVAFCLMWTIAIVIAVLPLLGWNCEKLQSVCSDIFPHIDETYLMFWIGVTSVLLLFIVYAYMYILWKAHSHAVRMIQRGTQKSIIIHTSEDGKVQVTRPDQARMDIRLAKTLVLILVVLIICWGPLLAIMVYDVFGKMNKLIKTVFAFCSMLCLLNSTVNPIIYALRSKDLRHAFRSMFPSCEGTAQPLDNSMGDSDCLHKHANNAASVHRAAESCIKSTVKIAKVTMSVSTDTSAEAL
Htr2a: 5-hydroxytryptamine receptor 2A (Htr2a, Mus musculus, UniProt P35363)
Chain of UniProt P35363 (whole entry, looked up): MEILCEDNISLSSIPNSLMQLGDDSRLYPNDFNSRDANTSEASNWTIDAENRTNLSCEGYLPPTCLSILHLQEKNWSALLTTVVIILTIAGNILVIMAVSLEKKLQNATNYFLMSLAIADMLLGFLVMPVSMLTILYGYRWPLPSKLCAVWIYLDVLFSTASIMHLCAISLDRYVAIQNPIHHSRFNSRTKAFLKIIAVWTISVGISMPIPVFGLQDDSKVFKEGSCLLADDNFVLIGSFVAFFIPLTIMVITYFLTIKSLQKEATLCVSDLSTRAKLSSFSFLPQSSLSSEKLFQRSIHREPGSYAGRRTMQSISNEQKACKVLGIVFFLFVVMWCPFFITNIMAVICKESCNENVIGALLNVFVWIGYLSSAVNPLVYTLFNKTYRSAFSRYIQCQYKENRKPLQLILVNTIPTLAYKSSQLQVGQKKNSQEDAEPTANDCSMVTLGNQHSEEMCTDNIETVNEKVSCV
Chain of UniProt Q70EK9 (whole entry, looked up): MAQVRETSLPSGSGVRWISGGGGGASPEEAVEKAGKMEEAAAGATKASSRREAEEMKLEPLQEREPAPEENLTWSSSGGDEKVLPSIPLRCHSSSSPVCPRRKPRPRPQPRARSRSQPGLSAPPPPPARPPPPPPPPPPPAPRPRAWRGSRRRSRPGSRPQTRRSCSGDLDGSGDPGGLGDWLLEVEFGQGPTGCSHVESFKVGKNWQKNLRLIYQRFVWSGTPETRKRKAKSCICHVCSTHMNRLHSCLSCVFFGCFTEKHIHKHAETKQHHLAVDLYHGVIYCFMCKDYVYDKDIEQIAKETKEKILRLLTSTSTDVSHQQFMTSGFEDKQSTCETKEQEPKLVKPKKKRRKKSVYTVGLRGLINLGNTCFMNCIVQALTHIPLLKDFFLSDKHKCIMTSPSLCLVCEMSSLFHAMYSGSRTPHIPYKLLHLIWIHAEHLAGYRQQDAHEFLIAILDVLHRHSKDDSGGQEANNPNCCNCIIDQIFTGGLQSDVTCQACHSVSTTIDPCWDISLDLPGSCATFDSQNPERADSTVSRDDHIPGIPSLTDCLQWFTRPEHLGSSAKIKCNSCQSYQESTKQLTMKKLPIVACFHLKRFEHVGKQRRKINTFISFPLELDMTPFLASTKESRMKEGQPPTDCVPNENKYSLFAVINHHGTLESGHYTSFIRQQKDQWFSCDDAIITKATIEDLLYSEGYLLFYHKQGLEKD
Chain of UniProt P49841 (whole entry, looked up): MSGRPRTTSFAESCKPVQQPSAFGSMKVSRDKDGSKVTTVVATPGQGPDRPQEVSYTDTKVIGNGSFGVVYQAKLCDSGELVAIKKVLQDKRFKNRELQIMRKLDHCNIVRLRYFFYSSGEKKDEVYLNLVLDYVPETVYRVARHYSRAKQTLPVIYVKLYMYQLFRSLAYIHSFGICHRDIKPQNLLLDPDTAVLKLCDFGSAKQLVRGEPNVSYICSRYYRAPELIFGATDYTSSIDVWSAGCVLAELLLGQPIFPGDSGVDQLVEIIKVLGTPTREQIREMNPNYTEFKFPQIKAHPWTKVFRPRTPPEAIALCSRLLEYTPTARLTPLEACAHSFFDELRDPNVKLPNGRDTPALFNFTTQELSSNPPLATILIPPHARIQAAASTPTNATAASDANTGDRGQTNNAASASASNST
Chain of UniProt P54577 (whole entry, looked up): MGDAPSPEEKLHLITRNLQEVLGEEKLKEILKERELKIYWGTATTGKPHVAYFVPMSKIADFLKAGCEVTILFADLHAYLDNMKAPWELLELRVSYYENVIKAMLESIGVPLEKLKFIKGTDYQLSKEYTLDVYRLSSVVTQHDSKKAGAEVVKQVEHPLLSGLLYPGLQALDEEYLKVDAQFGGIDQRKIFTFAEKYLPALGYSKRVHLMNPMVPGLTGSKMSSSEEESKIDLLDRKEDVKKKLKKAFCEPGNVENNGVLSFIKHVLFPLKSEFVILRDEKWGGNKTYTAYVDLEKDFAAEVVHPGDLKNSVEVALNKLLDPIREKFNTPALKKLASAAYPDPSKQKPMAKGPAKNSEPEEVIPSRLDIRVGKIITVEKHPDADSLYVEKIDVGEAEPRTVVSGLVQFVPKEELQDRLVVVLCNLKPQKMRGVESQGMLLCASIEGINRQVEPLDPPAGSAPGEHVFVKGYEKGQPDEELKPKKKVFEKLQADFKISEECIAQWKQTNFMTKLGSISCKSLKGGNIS
Chain of UniProt Q8N5S9 (whole entry, looked up): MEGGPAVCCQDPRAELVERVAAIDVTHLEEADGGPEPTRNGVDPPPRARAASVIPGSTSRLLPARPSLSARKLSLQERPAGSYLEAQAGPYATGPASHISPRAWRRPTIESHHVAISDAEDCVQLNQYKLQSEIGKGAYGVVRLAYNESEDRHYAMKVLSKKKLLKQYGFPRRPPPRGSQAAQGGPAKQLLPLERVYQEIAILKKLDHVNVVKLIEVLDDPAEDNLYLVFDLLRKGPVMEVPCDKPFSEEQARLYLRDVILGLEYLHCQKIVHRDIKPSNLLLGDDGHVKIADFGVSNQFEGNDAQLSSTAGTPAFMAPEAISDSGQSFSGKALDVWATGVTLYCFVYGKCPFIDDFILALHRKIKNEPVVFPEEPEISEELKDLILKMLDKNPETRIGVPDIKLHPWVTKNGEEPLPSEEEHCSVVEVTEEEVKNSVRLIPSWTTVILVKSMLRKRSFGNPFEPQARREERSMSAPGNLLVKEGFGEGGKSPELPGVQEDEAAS
Chain of UniProt Q8N6T7 (whole entry, looked up): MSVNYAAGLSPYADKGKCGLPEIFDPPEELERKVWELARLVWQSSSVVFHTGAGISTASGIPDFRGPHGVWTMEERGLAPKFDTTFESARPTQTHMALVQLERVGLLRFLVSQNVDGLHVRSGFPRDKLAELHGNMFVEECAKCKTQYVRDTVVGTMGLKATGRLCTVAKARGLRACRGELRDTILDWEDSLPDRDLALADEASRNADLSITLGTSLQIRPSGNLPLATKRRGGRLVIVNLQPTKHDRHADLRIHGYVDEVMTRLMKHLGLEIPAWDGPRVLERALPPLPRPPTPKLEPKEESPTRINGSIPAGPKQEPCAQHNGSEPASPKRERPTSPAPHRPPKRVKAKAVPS

Compound	target	observed	mode	technique	concentration	measurement	value
CCC(NCCc1cc(OC)c(C#N)cc1OC)c1ccccc1O (centres unmarked)	Htr2c	G protein activation	agonist	BRET	–	Emax	86%
COc1ccc(C(=O)NCC(C)(C)c2nc(-c3ccc(Cl)c(O)c3)c(-c3ccncc3)[nH]2)cc1OCCN(C(C)C)C(C)C	PFF0160c (Plasmodium falciparum, UniProt Q08210, E182D)	enzyme activity	inhibitor	absorbance	–	IC50	3490 nM
CCOC(=O)C1=C(C)NC(=NN=c2[nH]c3ccccc3[nH]c2=O)NC1c1ccc(F)cc1 (centres unmarked)	tmk	enzyme activity	inhibitor	absorbance	0.01 µg/mL	inhibition	35.3%
CN[C@@]1(c2ccccc2Cl)CCCCC1=O	MAPK1 (Homo sapiens, UniProt P28482)	enzyme activity	inhibitor	–	30 µM	inhibition	2%
CCCCCOc1ccc(C(=O)c2cccc3ccccc23)c2ccccc12	CNR1	β-arrestin recruitment	agonist	BRET	–	Emax	175%
C=CCc1ccc2c(c1)OCO2	GSK3B (Homo sapiens, UniProt P49841)	enzyme activity	inhibitor	ADP detection	100 µM	inhibition	19.4%
COc1cc(CCNC(C)c2ccccc2O)c(OC)cc1C#N (centres unmarked)	Htr2a	G protein activation	agonist	BRET	–	Emax	92%
Cc1cc(=O)oc2c1ccc1oc(C(O)c3ccc(Cl)cc3)c(C)c12 (centres unmarked)	PFF0160c (Plasmodium falciparum, UniProt Q08210)	enzyme activity	inhibitor	absorbance	–	IC50	325 nM
CC(N)Cc1ccc(O)cc1 (centres unmarked)	YARS1 (Homo sapiens, UniProt P54577)	enzyme activity	inhibitor	–	100 µM	remaining activity	78.4%
COC1=C[C@@H]2[C@@H]3Cc4ccc(OC)c(O)c4[C@]2(CCN3C)CC1=O	USP51 (Homo sapiens, UniProt Q70EK9)	enzyme activity	inhibitor	–	5 µM	inhibition	5%
N#Cc1ccc(C(=O)NOCc2ccc(C(F)(F)F)cc2)cc1	SIRT6 (Homo sapiens, UniProt Q8N6T7)	enzyme activity	inhibitor	fluorescence	100 µM	inhibition	82.5%
[2H]c1c([2H])c([C@]2([2H])CCCN2C(=O)C(C)(C)Oc2ccc3cn[nH]c3c2)c([2H])c([2H])c1C([2H])([2H])[2H]	CAMKK1 (Homo sapiens, UniProt Q8N5S9)	binding	–	competition with immobilised ligand	1 µM	remaining binding	81%
COc1cc(CCNC(C)c2ccccc2O)c(OC)cc1Br (centres unmarked)	Htr2a	G protein activation	agonist	BRET	–	Emax	98%
COC(=O)[C@@H](NC(=O)c1nn(Cc2ccc(F)cc2)c2ccccc12)C(C)(C)C	CNR1	β-arrestin recruitment	agonist	BRET	–	Emax	178%
CCOC(=O)C1=C(C)NC(=O)NC1c1ccc([N+](=O)[O-])o1 (centres unmarked)	tmk	enzyme activity	inhibitor	absorbance	0.1 µg/mL	inhibition	45.4%
COC(=O)[C@@H](NC(=O)c1nn(Cc2ccc(F)cc2)c2ccccc12)C(C)C	CNR1	β-arrestin recruitment	agonist	–	–	Emax	103%
CC1=C(C(N)=O)C(c2ccc([N+](=O)[O-])o2)NC(=S)N1 (centres unmarked)	tmk	enzyme activity	inhibitor	absorbance	10 µg/mL	inhibition	87.5%
COc1cc(CCN)c(OC)cc1C#N	Htr2c	G protein activation	agonist	BRET	–	Emax	91%
CC1=C(C(N)=O)C(c2ccc([N+](=O)[O-])o2)NC(=O)N1 (centres unmarked)	tmk	enzyme activity	inhibitor	absorbance	0.1 µg/mL	inhibition	54.7%
C=CC(=O)N1CCC(COCC(=O)N2CCN(c3nc(-c4cnc(N)nc4C(F)F)nc(N4CCOC[C@@H]4C)n3)CC2)CC1	pknB (Mycobacterium tuberculosis, UniProt P9WI81)	binding	–	competition with immobilised ligand	1 µM	remaining binding	91%

Excerpt of the above:
Compound	target	observed	mode	technique	concentration	measurement	value
CCOC(=O)C1=C(C)NC(=O)NC1c1ccc([N+](=O)[O-])o1 (centres unmarked)	tmk	enzyme activity	inhibitor	absorbance	0.1 µg/mL	inhibition	45.4%
